Experimental data gathered from unrelated publications.
Every numbered part comes from another study and shows a few of its results, in no order. Changes are numbered by the printed parent chain.

Study 1 — target: CCNB1, cyclin fold, Cln2 fusion (human); technique: yeast growth competition, sequencing; matrix: yeast; setting: strong parent motif; baseline: not given; reading: higher = stronger binding
Starting sequence: MICAL3 docking peptide (human); LQLRRQLSFSEDS; partner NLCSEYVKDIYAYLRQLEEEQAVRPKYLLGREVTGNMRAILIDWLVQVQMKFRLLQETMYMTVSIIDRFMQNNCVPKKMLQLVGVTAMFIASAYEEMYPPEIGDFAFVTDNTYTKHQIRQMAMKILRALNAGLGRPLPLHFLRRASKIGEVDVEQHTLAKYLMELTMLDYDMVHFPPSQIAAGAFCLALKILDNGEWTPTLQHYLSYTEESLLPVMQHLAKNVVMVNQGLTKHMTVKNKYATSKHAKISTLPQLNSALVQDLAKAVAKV
Variant	normalised enrichment score
LQLRRQLNFSEDS [S8N]	2.27
LQLRRQLSQSEDS [F9Q]	0.285
LQLRRDLSFSEDS [Q6D]	0.0628
LQLDRQLSFSEDS [R4D]	0.49
LQLRRQLSFEEDS [S10E]	4.57
LCLRRQLSFSEDS [Q2C]	5
LQLRRQLSFSEWS [D12W]	2.84
LQLRRQLSGSEDS [F9G]	-0.0832
LQLRRSLSFSEDS [Q6S]	3.33
LQLRKQLSFSEDS [R5K]	1.87
LQLRRQRSFSEDS [L7R]	-0.326
LQLRRFLSFSEDS [Q6F]	0.345
LQLRRQLWFSEDS [S8W]	0.985
LQLRRQLPFSEDS [S8P]	0.535
LQLRRQLSESEDS [F9E]	0.169
LQLPRQLSFSEDS [R4P]	1.06
LQLRRQLSFSERS [D12R]	3.2
LQNRRQLSFSEDS [L3N]	0.168

Study 2 — technique: DHFR PCA, deep sequencing; matrix: yeast; with: (+)-ABA 17 µM; baseline: wild-type fitted maximum; reading: higher = stronger binding
Target: ABI1, truncated, D143A, DHFR fusion (Arabidopsis thaliana)
Setting: methotrexate growth selection, single substitutions
Starting sequence: PYL1, truncated, DHFR fusion (Arabidopsis thaliana); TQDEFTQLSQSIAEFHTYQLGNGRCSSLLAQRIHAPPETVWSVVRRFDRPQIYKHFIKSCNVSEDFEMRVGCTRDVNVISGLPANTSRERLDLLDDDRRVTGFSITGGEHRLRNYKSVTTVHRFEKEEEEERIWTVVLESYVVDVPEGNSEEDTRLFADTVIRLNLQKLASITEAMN; partner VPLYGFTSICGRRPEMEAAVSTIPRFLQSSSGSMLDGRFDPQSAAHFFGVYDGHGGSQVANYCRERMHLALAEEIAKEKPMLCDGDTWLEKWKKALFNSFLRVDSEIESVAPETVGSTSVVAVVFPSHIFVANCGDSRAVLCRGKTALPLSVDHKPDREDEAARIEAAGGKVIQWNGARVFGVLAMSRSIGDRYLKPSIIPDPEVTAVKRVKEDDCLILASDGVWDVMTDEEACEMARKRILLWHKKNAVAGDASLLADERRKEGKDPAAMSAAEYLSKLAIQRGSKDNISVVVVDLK
Variant	relative binding score [%]
E125G	85
R32V	85.5
A84E	16.9
E139G	-4.01
I12L	50.6
L94D	-1.89
T106L	88.1
E128K	96.9
I105K	-5.78
V161H	1.21
N114G	78.4
V142E	83.2
R98V	55.1
Y141W	-2.23
V76R	-2.07
T1G	80.1

Study 3 — technique: RNA Bind-n-Seq; molecule type: RNA; matrix: in vitro; concentration: 200 nM; setting: whole 134-nt RNA, ends assumed; with: 150 mM KCl; baseline: input library; reading: higher = stronger binding
Target: Ras GTPase-activating protein-binding protein 1, full length (G3BP1, Homo sapiens, UniProt Q13283)
Chain of UniProt Q13283 (whole entry, looked up): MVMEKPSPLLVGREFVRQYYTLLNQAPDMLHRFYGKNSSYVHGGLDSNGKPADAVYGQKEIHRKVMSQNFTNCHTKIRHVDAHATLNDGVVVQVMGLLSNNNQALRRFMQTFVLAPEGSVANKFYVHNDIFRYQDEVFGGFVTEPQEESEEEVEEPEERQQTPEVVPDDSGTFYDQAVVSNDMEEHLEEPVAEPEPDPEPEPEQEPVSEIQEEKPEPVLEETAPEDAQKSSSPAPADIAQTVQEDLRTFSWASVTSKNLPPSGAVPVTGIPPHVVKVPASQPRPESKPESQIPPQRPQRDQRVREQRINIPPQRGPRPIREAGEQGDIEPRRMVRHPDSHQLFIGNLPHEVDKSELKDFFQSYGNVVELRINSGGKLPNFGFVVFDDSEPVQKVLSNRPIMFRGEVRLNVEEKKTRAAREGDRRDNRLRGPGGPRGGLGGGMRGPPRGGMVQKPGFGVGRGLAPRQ
Strand	log2 enrichment
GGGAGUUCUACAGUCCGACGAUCUUACUUUAGAGGAGGAUCUGAUGGAUAUGGCAGUGGACGUGGAUUUGGGGAUGGCUAUAAUGGGUAUGGAGGAGGACCUGGAGGUGGCAAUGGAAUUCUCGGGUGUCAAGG	0.419
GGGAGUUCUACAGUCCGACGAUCACCAUGCAGGUGGGCAUCUUUGGGAAGUGGGGCAAGGGGGGGUUAGGGAGGGGGGUAACACUUUGGGAACAGGUGGUCCCAGGUCGUUUCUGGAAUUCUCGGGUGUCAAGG	1.2
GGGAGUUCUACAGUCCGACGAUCUCCUGUGCUACACAUCGUAUGUACCGAAUCGGGGAAAGGGGAAAAAAAGGGGAAAGGGGAAAGUAUUAUGUUACGCCGUUCGGAUCUGCAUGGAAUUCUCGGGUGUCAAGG	0.811
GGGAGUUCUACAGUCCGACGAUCUCCUGUGCUACACAUCGUAUGUACCGAAUCGGCCCCCCGGGCCCCCCGGGCCCCCCGGGAAAGUAUUAUGUUACGCCGUUCGGAUCUGCAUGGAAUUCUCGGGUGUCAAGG	-0.975
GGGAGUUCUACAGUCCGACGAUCUUCAACAACUAGUACUGCUUCAAAUUAUCCAGAUGUGUUAACAAGGCCUUCUCUUCAUCGGAGCCAUCUGAAUUUUUCCAUGUUGGAAUCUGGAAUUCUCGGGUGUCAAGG	-0.0161
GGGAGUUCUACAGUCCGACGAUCCACAGACAACACGCAACCACACAGACACAGAGGGAAGGGGUUGGGAUGGGGACAGGGUGCACAGCAGGGCGGGGUAGGACCCCAGCCCCUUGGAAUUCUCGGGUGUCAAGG	1.54
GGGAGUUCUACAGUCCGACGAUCAAGUCCUGUGCUACACAUCGUAUGUACCGAAUCGGGAGGGUUUUUUUGGGAAAGGGAAAGUAUUAUGUUACGCCGUUCGGAUCUGCACUUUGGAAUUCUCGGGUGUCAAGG	-0.0432
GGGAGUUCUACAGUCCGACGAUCUGGGAGGUGGAUUUUGUUUAUUUUUUUAGCUCAUUUCCAGGGGUGGGAAUUUUUUUUUAAUAUGUGUCAUGAAUAAAGUUGUUUUAGAAAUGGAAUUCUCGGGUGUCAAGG	0.223
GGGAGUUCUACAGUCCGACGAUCUAACUUUAGAGGAGGAUCUGAUGGAUAUGGCAGUGGACGUGGGUUUGGGGAUGGCUAUAAUGGGUAUGGAGGAGGACCUGGAGGUGGCAAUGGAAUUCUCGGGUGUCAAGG	0.559
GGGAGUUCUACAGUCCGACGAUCCUCAAGUCCUGUGCUACACAUCGUAUGUACCGAAUCGGGGCCGGGCCGGGCCGGAAAGUAUUAUGUUACGCCGUUCGGAUCUGCACUUCCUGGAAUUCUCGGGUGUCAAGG	-0.292
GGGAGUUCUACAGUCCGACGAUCUAACUUUAGAGGAGGAUCUGAUGGAUAUGGCAGUGGACGUGGAUUUGGCGAUGGCUAUAAUGGGUAUGGAGGAGGACCUGGAGGUGGCAAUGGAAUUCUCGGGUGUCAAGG	0.239
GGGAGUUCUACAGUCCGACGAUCUGUGCUACACAUCGUAUGUACCGAAUCGGGGCCCCCCCGGGGCCCCCCCGGGGCCCCCCCGGAAAGUAUUAUGUUACGCCGUUCGGAUCUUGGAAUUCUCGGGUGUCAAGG	-0.333
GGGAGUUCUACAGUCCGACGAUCCAAGUCCUGUGCUACACAUCGUAUGUACCGAAUCGGGAAAAAGGGUGGGUUUGGGAAAGUAUUAUGUUACGCCGUUCGGAUCUGCACUUCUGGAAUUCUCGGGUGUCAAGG	0.69
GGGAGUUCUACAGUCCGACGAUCGUCCUGUGCUACACAUCGUAUGUACCGAAUCGGGGAAAGGGGAAAAAGGGGUUUGGGGAAAGUAUUAUGUUACGCCGUUCGGAUCUGCACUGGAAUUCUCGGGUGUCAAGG	0.492

Study 4 — technique: protein binding microarray; molecule type: double-stranded DNA, one strand shown; matrix: in vitro; concentration: not given; baseline: not given; reading: higher = stronger binding
Target: Histone acetyltransferase KAT6A, winged helix 1, GST fusion (KAT6A, Homo sapiens, UniProt Q92794, residues 1-85)
Setting: 8-mer, flanks averaged, mean of 2 arrays, mostly near background
Target sequence (chain): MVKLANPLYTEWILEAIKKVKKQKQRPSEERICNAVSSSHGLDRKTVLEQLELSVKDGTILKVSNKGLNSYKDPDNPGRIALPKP
Strand	E-score
TCGGACAA	0.0673
ATGCACAT	-0.0655
ACGTGGAT	-0.134
CCCGCGCC	0.386
ATCTGGAC	-0.183
AGGTAACA	-0.211
AGTGCGAA	0.00783
ATGGCCGG	0.118
AAGTAAGC	-0.106
ACTTGCGC	0.33
GGGCATCA	-0.0768
AGCCATGA	-0.151
CGGAGCTC	0.157
ATGGCAAG	0.0224
ATAAGCCA	-0.252
CCGGTGAA	0.215
GCCGACGC	0.448
TCTGCGAA	-0.138

Study 5 — technique: competition protein-binding microarray; molecule type: double-stranded DNA, one strand shown; matrix: in vitro; concentration: 2 µM; with: Pho4 competitor, 0.05 µM; reading: higher = stronger binding
Target: Centromere-binding protein 1, full length, His-tagged (CBF1, Saccharomyces cerevisiae, UniProt P17106, residues 1-351)
Chain of UniProt P17106 (whole entry, looked up): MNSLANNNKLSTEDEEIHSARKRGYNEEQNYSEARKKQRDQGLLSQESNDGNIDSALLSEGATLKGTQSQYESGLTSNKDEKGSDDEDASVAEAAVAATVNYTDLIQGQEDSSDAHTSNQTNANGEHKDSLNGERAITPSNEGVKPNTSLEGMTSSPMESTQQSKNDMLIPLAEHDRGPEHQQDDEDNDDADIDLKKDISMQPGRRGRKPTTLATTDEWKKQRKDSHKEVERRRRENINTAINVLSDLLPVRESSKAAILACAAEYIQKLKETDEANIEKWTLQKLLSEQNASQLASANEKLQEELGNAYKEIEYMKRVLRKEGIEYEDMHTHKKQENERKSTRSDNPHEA
Setting: whole 60-bp probe, lowest competitor level
Strand	fluorescence intensity [a.u.]
TTCGACAGCGCTAACGTTGTGACGGTAAGTGCTTTCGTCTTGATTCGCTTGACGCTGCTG	62.4
CTCCTCCGCGCTTTCCTCGTGCGCCTGCAGCCCTTGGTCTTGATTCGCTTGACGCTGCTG	82.6
TGCGGGTACTTTGAGAGCGTGTCCTAACTTTGGCTTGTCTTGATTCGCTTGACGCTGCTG	59.8
CCGAACCTTTGAGCGGTCATGACAACTTCAATTCTTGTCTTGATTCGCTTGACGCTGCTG	83.5
CGGGGTTAAGTTTGCTAGGTGGGTGGCTTGCAGCAGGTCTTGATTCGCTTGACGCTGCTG	73.8
CTTCCAACAAACCATCACGCTGTCGTATCTCAATTGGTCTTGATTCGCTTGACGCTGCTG	130
CATCCCACCCAATCGCACGGGTCTTCTGTGCGAATGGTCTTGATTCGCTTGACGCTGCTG	68.2
CGAAGTTTGCGGCGTCACATGATAAAATTCCATTATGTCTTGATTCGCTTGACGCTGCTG	1690
AAAGCGGTAATTTGTCACGTCACTTCACATATCTATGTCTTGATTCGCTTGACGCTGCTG	123
GCCTCCGGTCCAGGCACCGTGGCCGCAGGTTTGATTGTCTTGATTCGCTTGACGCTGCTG	55.2
CGTCCTAGTGATTGGTGGGTGGGTGCCATGAGGAAGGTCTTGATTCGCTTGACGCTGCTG	81.3
GATACCCCGTTGCACCATGTGGAGGATGTAGCCACTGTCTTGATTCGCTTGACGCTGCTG	70.5
TATATGTAGTATCCACACGTGGACGACCATTAACGAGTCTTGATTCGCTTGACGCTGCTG	599
CGGGGTTAAGTTTGATACGTGGGTGGCTTGCAGCAGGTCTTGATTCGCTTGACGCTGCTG	63.3
CGGTATGTTCCGAGCCGCGTGCCGAAGGAGGGCAAAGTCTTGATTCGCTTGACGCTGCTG	66.8
GTCTTGTCTCATTGGGGCGTGGGTGTCCCCACTTCAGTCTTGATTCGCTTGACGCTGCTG	85.1
ACTAGAAGAAATCCGCACGTGTAACCAAAAATAGAGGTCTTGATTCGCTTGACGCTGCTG	1580
CTAACGAAGGTTTGTAGCGTGGGTGACAAGCCAAGTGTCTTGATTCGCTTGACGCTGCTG	65.8
CTTCTGTAAATTTGATCGGTGGGTGGACGCGCCCCGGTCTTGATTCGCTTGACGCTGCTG	76

Study 6 — technique: universal PBM; molecule type: double-stranded DNA, one strand shown; matrix: in vitro; concentration: 600 nM; reading: higher = stronger binding
Target: Sal-like protein 4, full length isoform A (SALL4, Homo sapiens, UniProt Q9UJQ4, residues 1-1053)
Chain of UniProt Q9UJQ4 (whole entry, looked up): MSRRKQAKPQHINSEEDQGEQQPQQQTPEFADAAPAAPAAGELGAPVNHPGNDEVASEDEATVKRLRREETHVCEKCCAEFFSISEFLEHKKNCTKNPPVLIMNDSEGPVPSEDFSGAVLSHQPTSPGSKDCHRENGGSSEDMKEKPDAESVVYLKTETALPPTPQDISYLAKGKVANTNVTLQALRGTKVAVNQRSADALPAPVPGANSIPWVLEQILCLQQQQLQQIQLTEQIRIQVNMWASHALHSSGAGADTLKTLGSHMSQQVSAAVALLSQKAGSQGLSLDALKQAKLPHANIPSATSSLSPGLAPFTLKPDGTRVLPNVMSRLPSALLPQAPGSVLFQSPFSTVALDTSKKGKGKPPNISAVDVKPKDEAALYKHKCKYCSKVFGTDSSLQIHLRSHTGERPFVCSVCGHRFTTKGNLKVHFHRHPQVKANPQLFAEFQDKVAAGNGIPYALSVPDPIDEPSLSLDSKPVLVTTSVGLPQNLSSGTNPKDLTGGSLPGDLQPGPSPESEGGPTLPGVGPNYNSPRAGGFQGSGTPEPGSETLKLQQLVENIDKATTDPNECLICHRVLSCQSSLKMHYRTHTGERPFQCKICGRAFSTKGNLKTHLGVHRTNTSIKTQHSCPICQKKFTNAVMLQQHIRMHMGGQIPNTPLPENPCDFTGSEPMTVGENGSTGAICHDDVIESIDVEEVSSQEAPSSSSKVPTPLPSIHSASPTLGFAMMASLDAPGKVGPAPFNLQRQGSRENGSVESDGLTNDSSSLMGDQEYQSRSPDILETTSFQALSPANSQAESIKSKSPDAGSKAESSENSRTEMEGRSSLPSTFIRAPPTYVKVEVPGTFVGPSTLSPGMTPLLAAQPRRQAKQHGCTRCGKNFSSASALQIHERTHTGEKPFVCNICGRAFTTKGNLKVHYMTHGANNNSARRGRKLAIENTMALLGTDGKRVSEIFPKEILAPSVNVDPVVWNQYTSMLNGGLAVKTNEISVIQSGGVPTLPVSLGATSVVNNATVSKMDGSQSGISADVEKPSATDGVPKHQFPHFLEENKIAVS
Setting: 8-mer, flanks averaged, mean of replicates
Strand	E-score
CGTGCCAG	-0.28
AGAAATAT	0.402
CGAATCGC	-0.24
ACTTCACG	-0.0721
ATTCAAGG	0.0368
GTAACAAC	0.0714
CACTAATG	0.112
ACCTGGGC	-0.2
ACGTTGCT	-0.00835
GCCGTTGA	-0.103
TAACGAAA	0.34
CATTCTGG	-0.0343
AGATGACC	-0.0536
ACGGTCAC	-0.285
ACGGTACG	-0.139
ACGGAGAG	-0.137
GAGCATAC	0.0532
CCTCTCAC	-0.0998
AGCGGAAC	-0.248
AGAAATTA	0.356
ACACTTTG	0.149
CACTCTTA	0.059
CACTGTGA	-0.0721
GGCTGCTA	-0.0926
ATAAGGCA	0.113

Some of these lines once more (study 1):
Variant	normalised enrichment score
LQLRRQLSFEEDS [S10E]	4.57
LCLRRQLSFSEDS [Q2C]	5
LQLRRQLSFSEWS [D12W]	2.84
LQLRRQLSGSEDS [F9G]	-0.0832
LQLRRSLSFSEDS [Q6S]	3.33
LQLRKQLSFSEDS [R5K]	1.87
LQLRRQRSFSEDS [L7R]	-0.326
LQLRRFLSFSEDS [Q6F]	0.345
LQLRRQLWFSEDS [S8W]	0.985
